Measurements of several laboratories.
Protocols differ between the studies behind these lines. ± gives the spread as reported. Values after ≈ are worked out from the molar mass of the structure shown.

CC[C@H](C)[C@H](NC(=O)[C@H](N)Cc1ccc(O)cc1)C(=O)N[C@H]1CSSC[C@@H](C(=O)N(C)[C@H](C(N)=O)[C@@H](C)CC)NC(=O)[C@H](CCCNC(=N)N)NC(=O)[C@H](Cc2c[nH]cn2)NC(=O)[C@H](C)NC(=O)CN(C)C(=O)[C@H](Cc2c[nH]c3ccccc23)NC(=O)[C@H](CC(=O)O)NC(=O)[C@H](CCC(N)=O)NC(=O)[C@H](Cc2cn(C)c3ccccc23)NC(=O)[C@H](C(C)C)NC1=O — recovery (UPLC-ESI-MS; human plasma; 3.58 µg/mL, 24 h, 4 °C, autosampler after SPE): 99.4 ± 0.2%
COC(=O)c1ccc(-c2cn(Cc3cc(Cl)ccc3O[11CH3])nn2)cc1 — distribution volume (PET, one-tissue compartment model; rhesus monkey, brain NAc; dose not given): 0.684 mL/cm³
C[Si](C)(C[C@@H](CN)CC(=O)O)C1CC1 — performance time (neuromuscular coordination; Wistar rat male; oral, 30 mg/kg, 1 h): 180 s
Cc1cc2c(cc1C1(c3ncc(C(=O)O)cn3)CC1)C(C)(C)CCC2(C)C — LDL level (Sprague-Dawley rat, male, plasma; oral, 100 mg/kg, 2 h, sesame oil vehicle): 16 ± 3.5 mg/dL
NC[C@@H](C(=O)Nc1ccc(-c2cn[nH]c2)cc1)c1ccccc1 — microsomal CLint (metabolic stability; dog, liver microsomes): 7.82 µL/min/mg
COc1cc(NC(C)=O)c2c(c1O)-c1c(OC)c(OC)cc3c1C(C2)N(C)CC3 (stereo not drawn) — remaining compound (rat lung homogenate; 5 µg/mL, 24 h, room temperature, post-preparative storage): 86.6 ± 1.3%
CCC(=O)N[C@@H](C)C(=O)OCC(=O)N[C@@H](C)C(=O)O — depolymerization half-life (water; pH 6, 25 °C): 806 h
CCC/C(=C\C1=C(F)C(=O)c2ccccc2C1=O)C(=O)N(CC)CC — thermodynamic solubility (FaSSIF; 24 h, 37 °C): 85 µg/mL (≈ 248 µM)
[11CH3]Nc1ccc(-c2nc3ccc(O)cc3o2)cn1 — radioligand metabolised (AD patients and controls, arterial plasma; 5 min): ~50%
Oc1ccc2ccccc2c1/N=N/c1ccc(/N=N/c2ccccc2)cc1 — freeze-thaw stability deviation (rat whole blood; 16.0 µg/L, freeze-thaw cycle 2): 0.3%
CC(=O)Nc1ncc(CN2CC[C@H](Oc3cccc([18F])n3)C[C@@H]2C)s1 — radiochemical stability (HPLC; formulation; 2 h, room temperature): > 97%
CCCC(CCC(=O)O)NC(=O)c1ccc2c(c1)OCO2 (stereo not drawn) — AUC(0-last) ratio (female Sprague-Dawley rats, plasma; oral, 200 mg/kg of parent drug; relative to: 200 over 20 mg/kg dose): 11.8
N=C(N)NCCC[C@@H]1NC(=O)[C@H](Cc2c[nH]c3ccccc23)NC(=O)[C@@H](CC2CCCCC2)NC(=O)[C@@H]2CCCN2C(=O)[C@@H](NC(=O)CCc2ccccc2)CCCNC1=O — apparent total clearance (CL/F) (C57BL/6J mice, brain; subcutaneous, 1 mg/kg, two-compartment model): 1.66 ng/(min·ng/g)
CC(C)C(=O)N1CCC=C(c2cc3c(Nc4cc5ncsc5cc4F)ncnc3s2)C1 — half-life (metabolic stability; human, liver microsomes): > 2 h
CCCC[C@H](NC(=O)CNC(=O)CNC(=O)CN1CCN(CC(=O)O)CCN(CC(=O)O)CC1)C(=O)N[C@H]1CC(=O)NCCCC[C@@H](C(N)=O)NC(=O)[C@H](Cc2c[nH]c3ccccc23)NC(=O)[C@H](CCCNC(=N)N)NC(=O)[C@@H](Cc2ccccc2)NC(=O)[C@H](Cc2c[nH]cn2)NC1=O [gallium-67 labelled] — tissue uptake (female C57 mice, B16/F1 melanoma, skin; intravenous, 0.037 MBq, 2 h): 0.54 ± 0.35 %ID/g
O=C(O)C1CN(Cc2ccc(-c3noc(-c4ccc(OCC[18F])c(C(F)(F)F)c4)n3)cc2)C1 — tracer uptake (rat, heart; intravenous, 5 min): 0.811 %ID/g
CCCC[C@@H]1NC(=O)[C@@H](NC(=O)[C@H](CCC(=O)O)NC(=O)CNC(=O)CN2CCN(CC(=O)O)CCN(CC(=O)O)CCN(CC(=O)O)CC2)CCCCNC(=O)C[C@@H](C(N)=O)NC(=O)[C@H](C(C)C)NC(=O)[C@@H]2CCCN2C(=O)[C@H](CCCNC(=N)N)NC(=O)CNC(=O)[C@H](Cc2c[nH]c3ccccc23)NC(=O)[C@H](CCCNC(=N)N)NC(=O)[C@@H](Cc2ccccc2)NC(=O)[C@H](Cc2c[nH]cn2)NC(=O)[C@H](CCC(=O)O)NC1=O [gallium-67 labelled] — tumour uptake (C57 mice, B16/F1 flank melanoma, tumour; intravenous, 0.037 MBq, 2 h): 12.9 ± 1.63 %ID/g
COCCOCCOCCOCCOCCOCCOCCNC(=O)CCC1(CCC(=O)NCCOCCOCCOCCOCCOCCOCCOC)c2ccccc2-c2ccc(-c3sc(-c4c5c(c(-c6sc(-c7ccc8c(c7)C(CCC(=O)NCCOCCOCCOCCOCCOCCOCCOC)(CCC(=O)NCCOCCOCCOCCOCCOCCOCCOC)c7ccccc7-8)c7c6OCCO7)c6nsnc46)N=S=N5)c4c3OCCO4)cc21 — faecal excretion (KM mice, female, faeces; intravenous, dose not given, 24 h; relative to: dose): ~47%
COCC1CN(C2CCN(c3cc(OC)c(Nc4ncc(Br)c(Nc5ccc6c(c5P(C)(C)=O)OCCO6)n4)cc3C)CC2)C1 — treatment-related Nausea, all grades (human patients; oral, 10 to 240 mg once daily): 29.6%
CN1CCC[C@]1(C)/C=C/S(=O)(=O)NC(=O)Nc1c2c(cc3c1CCC3)CCC2 — Tmax (human, plasma; oral, 50 mg, single dose): 1 h
COc1ccc2cc(-c3ccc(-c4ccc(C)cn4)nc3)oc2c1 — radiative decay rate constant (TCSPC; water, HEPES 100 mM; pH 7.4, zinc-free ligand): 0.1 ns⁻¹
Cc1noc(C)c1Cn1cc(N2C(=O)CN(Cc3cccc(O[C@@H]4O[C@H](C(=O)O)[C@@H](O)[C@H](O)[C@H]4O)c3)C2=O)cn1 — half-life (rat Sprague-Dawley male, plasma; oral, 10 mg/kg of parent drug): 1.4 h
F[P-](F)(F)(F)(F)F.O=C(CCC(=O)c1ccccc1)NCCN(CC(=O)Nc1ccc(C#CCN(Cc2ccccn2)Cc2ccccn2)cc1)C(=O)CCc1cn(C[c-]2cccc2)nn1.[C-]#[O+].[C-]#[O+].[C-]#[O+].[Fe+2].[Re+].c1cc[cH-]c1 — maximum solubility (DMEM; 10 min, room temperature): 50 µg/mL
NCC(=O)N1CCC[C@H]1C(=O)N1C[C@H](O)C[C@H]1C(=O)O — pKa1 (potentiometric titration; water; 37 °C, 0.15 mol/dm3 NaCl): < 2
CCCC[C@H](NC(C)=O)C(=O)N[C@H]1CC(=O)NCCCC[C@@H](C(=O)N[C@@H](C(=O)N2CCC[C@@H]2C(N)=O)C(C)C)NC(=O)[C@H](Cc2c[nH]c3ccccc23)NC(=O)[C@H](CCCN=C(N)N)NC(=O)[C@@H](Cc2ccc3ccccc3c2)NC(=O)[C@@H]2CCCN2C1=O — plasma histamine (healthy dogs, plasma; subcutaneous, 2.25 mg/kg per day, day 28, 1 h post-dose, median): 15.7 ng/mL
O=c1nc(NO)ccn1[C@@H]1O[C@H](CO)[C@@H](O)[C@H]1O — mRNA level (RT-PCR, refers to: CYP2C13; normal rat, liver; oral, 80 mg/kg twice daily, 5 days; relative to: untreated rats): < 0.1 fold
C=C(c1cc(F)c(C(=O)O)c(F)c1)c1cc2c(cc1C)C(C)(C)CCC2(C)C — LDL level (Sprague-Dawley rat, male, plasma; oral, 100 mg/kg, 24 h, sesame oil vehicle): 3 mg/dL
CC(C)C[C@H](NC(=O)C[C@H](O)[C@H](CC(C)C)NC(=O)[C@H](Cc1c[nH]cn1)NC(=O)CNC(=O)[C@@H](NC(=O)[C@H](C)NC(=O)[C@H](Cc1c[nH]c2ccccc12)NC(=O)[C@H](CCC(N)=O)NC(=O)[C@@H](Cc1ccccc1)NC(=O)CCNC(=O)CCNC(=O)CN1CCN(CC(=O)O)CCN(CC(=O)O)CCN(CC(=O)O)CC1)C(C)C)C(N)=O [lutetium-177 labelled] — absorbed dose (MIRD; mouse PC-3 xenograft, pancreas; intravenous, 50 MBq, without PA): 2.5 Gy
[11CH3]c1ccc2nc(C3CCC3)n(-c3ccc4[nH]ncc4c3)c2n1 — absorbed radiation dose (standard human, breasts; extrapolated from mouse biodistribution): 2.3 µSv/MBq
COc1cc(OC)cc(C2=C3C(C)=C(I)C(/C=C/c4c[nH]c5ccccc45)=[N+]3[B-](F)(F)n3c(/C=C/c4c[nH]c5ccccc45)c(I)c(C)c32)c1 — absorption maximum (THF): 715 nm
Cn1c(=O)oc2ccc(-c3ccc(CC(C#N)NC(=O)C4CNCCCO4)c(F)c3)cc21 (stereo not drawn) — subjects with TEAE (refers to: skin exfoliation; human; 80 mg single dose, fasted): 0%
O=C([O-])CN1CCN(CC(=O)[O-])CCN(CC(=O)NCC2CCC(C(=O)NC(Cc3ccc4ccccc4c3)C(=O)NCCCCC(NC(=O)NC(CCC(=O)O)C(=O)O)C(=O)O)CC2)CCN(CC(=O)[O-])CC1.[44Sc+3] (stereo not drawn) — intact tracer (0.9 % NaCl; 24 h, 37 °C): > 95%
CC(C)(F)CC(NC(c1ccc(-c2ccc(S(C)(=O)=O)cc2)cc1)C(F)(F)F)C(=O)NCC#N (stereo not drawn) — GSH adduct formation (LC-MS UV trace; aqueous buffer; 23 h, pH 7.5, 37 °C, with: GSH 5 mM): < 1%

A few entries again:
COCC1CN(C2CCN(c3cc(OC)c(Nc4ncc(Br)c(Nc5ccc6c(c5P(C)(C)=O)OCCO6)n4)cc3C)CC2)C1 — treatment-related Nausea, all grades (human patients; oral, 10 to 240 mg once daily): 29.6%
CN1CCC[C@]1(C)/C=C/S(=O)(=O)NC(=O)Nc1c2c(cc3c1CCC3)CCC2 — Tmax (human, plasma; oral, 50 mg, single dose): 1 h
COc1ccc2cc(-c3ccc(-c4ccc(C)cn4)nc3)oc2c1 — radiative decay rate constant (TCSPC; water, HEPES 100 mM; pH 7.4, zinc-free ligand): 0.1 ns⁻¹
Cc1noc(C)c1Cn1cc(N2C(=O)CN(Cc3cccc(O[C@@H]4O[C@H](C(=O)O)[C@@H](O)[C@H](O)[C@H]4O)c3)C2=O)cn1 — half-life (rat Sprague-Dawley male, plasma; oral, 10 mg/kg of parent drug): 1.4 h
F[P-](F)(F)(F)(F)F.O=C(CCC(=O)c1ccccc1)NCCN(CC(=O)Nc1ccc(C#CCN(Cc2ccccn2)Cc2ccccn2)cc1)C(=O)CCc1cn(C[c-]2cccc2)nn1.[C-]#[O+].[C-]#[O+].[C-]#[O+].[Fe+2].[Re+].c1cc[cH-]c1 — maximum solubility (DMEM; 10 min, room temperature): 50 µg/mL
